Measured values pooled from the literature.
Numbered parts are unrelated; each lists some results of a single study.

Block 1
Target: Centromere-binding protein 1, full length, His-tagged (CBF1, Saccharomyces cerevisiae, UniProt P17106, residues 1-351)
Sequence of UniProt P17106 (whole entry, looked up): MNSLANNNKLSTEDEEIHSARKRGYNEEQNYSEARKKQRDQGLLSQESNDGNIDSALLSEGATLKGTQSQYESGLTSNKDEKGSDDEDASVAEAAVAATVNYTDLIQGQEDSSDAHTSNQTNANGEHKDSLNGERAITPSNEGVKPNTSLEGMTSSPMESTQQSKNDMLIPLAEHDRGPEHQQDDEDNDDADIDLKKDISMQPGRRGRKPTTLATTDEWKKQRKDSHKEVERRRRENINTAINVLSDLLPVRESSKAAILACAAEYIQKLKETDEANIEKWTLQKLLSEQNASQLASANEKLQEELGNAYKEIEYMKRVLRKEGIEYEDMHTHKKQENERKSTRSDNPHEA
Method: competition protein-binding microarray
Molecule type: double-stranded DNA, one strand shown
Medium: in vitro
Tested at: 2 µM
Setting: whole 60-bp probe, lowest competitor level
Together with: Pho4 competitor, 0.05 µM
Direction: higher = stronger binding
The fluorescence intensity of `AGATGGAGAACCTGGCACGTGTACAAGAGTACAAGGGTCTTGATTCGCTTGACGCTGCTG` is reported as 1760 a.u.
The fluorescence intensity of `CTAACGAAGGTTTGTGAAGTGGGTGACAAGCCAAGTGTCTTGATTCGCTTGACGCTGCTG` is reported as 80.4 a.u.
For `AAATCTTTCCTCAACCGCGTGTTTTCGTCTTTACCAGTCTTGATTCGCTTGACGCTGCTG`, the fluorescence intensity was 81.4 a.u.
`TTGGGTTTCAACGTTTCCGTGGGTATGGGTCCACAAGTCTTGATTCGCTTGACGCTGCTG` has a fluorescence intensity of 45.5 a.u.
The fluorescence intensity of `CTAACGAAGGTTTGACCGGTGGGTGACAAGCCAAGTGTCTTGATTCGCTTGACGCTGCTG` is reported as 67.1 a.u.

Block 2
Target: RNA binding protein fox-1 homolog 2, RRM domain, GST-SBP tag (RBFOX2, Homo sapiens, UniProt O43251-10, residues 100-194)
Method: RNA Bind-n-Seq
Molecule type: RNA
Medium: in vitro
Tested at: 365 nM
Setting: natural RNA segment, single round, ends assumed
Reference: no-protein control
Direction: higher = stronger binding
Construct (chain): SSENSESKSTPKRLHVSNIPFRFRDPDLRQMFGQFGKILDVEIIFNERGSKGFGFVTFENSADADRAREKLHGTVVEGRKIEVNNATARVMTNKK
Under “RBNS enrichment (R)”, `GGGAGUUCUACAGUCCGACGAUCGUGACUCUUGCAGGAACCACUCCAUUGCCCUCCAGCUCCCCAGCCUUCUCAGUUAUAAACAUGCUGGCCAGAUCUCUUAGCCUGCAAAGAGAACUUUCCCCAGUCACCAUUGGAAUUCUCGGGUGCCAA` is recorded as 0.56.
`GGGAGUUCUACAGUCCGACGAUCCAGCCAUAGGCAAUGCUUAUUUGGGCAACUCUCACGCCUACAAGAGCAGAGAUGCACAAUAAGCAUUUGUCCAUUUGCUCUUUCCUCAACAGAGGAGAUUAGGAUUUCAAUGGAAUUCUCGGGUGCCAA`: “RBNS enrichment (R)” 0.276.
`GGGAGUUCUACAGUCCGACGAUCCAAUUAUGUGCUGCCCAACAACUAAAUUUGUAAUUUGUUUUCUCUACUUUGAGCAGGGUCUGAAUUUUUUCAUUUAUUUUCUUUUUGCCAGCAGACAGACUUGGGUCUAUUGGAAUUCUCGGGUGCCAA` — result for “RBNS enrichment (R)”: 0.398.
For `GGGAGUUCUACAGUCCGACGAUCUCCUUCGUUAUAACCACAAUGAGAUAAGUAUUGGCAUUAGUGUUCAGUGCCAUUUUAUACUUUCUCUCUGUGUUCUCUGUAUUGUACUAACCAACCUCCCAAAUCGCUGAUGGAAUUCUCGGGUGCCAA`, “RBNS enrichment (R)” read 0.584.
`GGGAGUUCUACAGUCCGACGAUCGCCAUCCCUGCACACAGCCUGGGGAGAAGCCUGUGCCUCCCCGUGUGGAGAGAAGGCAACCCCAGAUCCCCUGAGCUAACCCGGAGGAAAGGCAGUCCUGGACAGAAGACUGGAAUUCUCGGGUGCCAA`: “RBNS enrichment (R)” 0.665.
For `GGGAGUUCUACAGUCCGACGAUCUAGCUCUUUCUGUUCUGCCAUUCCCAACAUUCCUGGGGGAAAGGAGACUCAAUGAGUUAAUACUAUUUCACUGAGCCCAAGAUGGAAACUUGGUUUGACCUAAAACAUCUUGGAAUUCUCGGGUGCCAA`, “RBNS enrichment (R)” read 0.308.

Block 3
Target: Sal-like protein 4, full length isoform B (SALL4, Homo sapiens, UniProt Q9UJQ4-2, residues 1-616)
Method: universal PBM
Molecule type: double-stranded DNA, one strand shown
Medium: in vitro
Tested at: not given
Setting: 8-mer, flanks averaged, mean of replicates
Direction: higher = stronger binding
With `TCCGCCGA` the E-score was -0.215.
With `ACTTCGTC` the E-score was -0.0134.
`ATCTTAAC` gave an E-score of 0.196.
For `AGAGTGTA`, the E-score was -0.0563.
The E-score of `GGCAAACC` is reported as -0.191.
The E-score of `CTCCTCAG` is reported as -0.2.

Single results of other studies
The fold induction of `PhoQ, residues 284 288 289 292 302 303 SSTMSV` is reported as 1.77 (PhoP, residues 12 14 15 18 19 AWHSL (Escherichia coli, UniProt P23836); Sort-seq, refers to: YFP reporter; E. coli; PhoQ-PhoP variant library, together with: 10 µM Mg2+; reference: high Mg2+ state, higher = stronger signaling).

Repeated from above (block 3):
The E-score of `CTCCTCAG` is reported as -0.2.
`ATCTTAAC` gave an E-score of 0.196.
With `ACTTCGTC` the E-score was -0.0134.
